Published values pooled from the literature.
A part holds a random share of what one study measured. Positions count from the first letter of the parent shown.

Set 1
Target: Histone acetyltransferase KAT6A, winged helix 1, GST fusion (KAT6A, Homo sapiens, UniProt Q92794, residues 1-85)
Technique: protein binding microarray
Form: double-stranded DNA, one strand shown
Matrix: in vitro
Concentration: not given
Setting: 8-mer, flanks averaged, mean of 2 arrays, mostly near background
Relative to: not given
Direction: higher = stronger binding
Endpoint: E-score
Target sequence (chain): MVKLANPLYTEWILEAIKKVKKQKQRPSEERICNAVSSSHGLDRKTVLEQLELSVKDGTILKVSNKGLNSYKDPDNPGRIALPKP
TAGGCAAA: -0.163
GCCTCGAC: 0.101
CAACGGTA: 0.0482
CTACGCCC: 0.17
GCCGGCCA: 0.292
CTGGATTA: -0.126
ATGGTGCC: 0.0161
GCTGCCAC: -0.119
AGGACGAA: -0.0556
ACTGCTAA: -0.069
ATGGGGAA: -0.0962
CGAAAAGA: -0.187
CCGACGCA: 0.44
GCCGACGA: 0.203
CACACAGA: -0.189

Set 2
Target: ABI1, truncated, D143A, DHFR fusion (Arabidopsis thaliana)
Technique: DHFR PCA, deep sequencing
Matrix: yeast
Setting: methotrexate growth selection, single substitutions
With: (+)-ABA 0 µM
Relative to: wild-type fitted maximum
Direction: higher = stronger binding
Endpoint: relative binding score
Starting sequence: PYL1, truncated, DHFR fusion (Arabidopsis thaliana); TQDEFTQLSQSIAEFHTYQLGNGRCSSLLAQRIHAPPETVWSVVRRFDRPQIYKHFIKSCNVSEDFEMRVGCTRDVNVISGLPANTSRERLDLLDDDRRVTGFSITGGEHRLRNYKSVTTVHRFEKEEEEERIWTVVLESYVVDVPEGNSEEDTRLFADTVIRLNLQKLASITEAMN
R163K: 45.9%
I172R: 0.804%
R111N: 5.72%
E127R: 35.4%
T120N: -6.16%
C25T: 51.6%
D95S: 6.34%
A13C: 5.54%
H122I: -7.34%
G81H: 4.85%

Set 3
Target: Prothrombin, mature alpha-thrombin (F2, Homo sapiens, UniProt P00734)
Technique: aptamer microarray, sandwich
Form: DNA with 2'F-ANA
Matrix: in vitro
Concentration: 200 nM
Setting: whole 15-mer aptamer, many near background
With: Cy3 exosite-II aptamer, 400 nM
Direction: higher = stronger binding
Endpoint: mean fluorescence intensity
Oligonucleotide: GGTTGGTGTGGTTGG
2'F-ANA at 3 5 6 7 8 14: 91.3 a.u.
2'F-ANA at 4 6 9 11 14: 71.4 a.u.
2'F-ANA at 1 3 4 10 12 14 15: 50.5 a.u.
2'F-ANA at 1 2 3 6 7 9 10: 65.4 a.u.
2'F-ANA at 1 2 3 6 11 13: 210 a.u.
2'F-ANA at 1 2 4 5 6 7 8 9 10 11 12 13: 52.1 a.u.
2'F-ANA at 1 2 4 5 6 11: 55.2 a.u.
2'F-ANA at 3 4 5 8 15: 114 a.u.
2'F-ANA at 2 3 6 11 12 13 14: 426 a.u.
2'F-ANA at 1 2 3 4 6 10 13: 50.4 a.u.
2'F-ANA at 1 3 6 9 14 15: 76.8 a.u.
2'F-ANA at 1 2 3 7 10 13 14 15: 52.6 a.u.
2'F-ANA at 3 5 9: 138 a.u.
2'F-ANA at 1 2 3 7 8 11 15: 235 a.u.
2'F-ANA at 1 3 5 8 12 13 14: 49 a.u.
2'F-ANA at 4 6 7 8 11 12 15: 427 a.u.

Further values, each from its own experiment
PhoQ, residues 284 288 289 292 302 303 AQGLTV
fold induction (PhoP, residues 12 14 15 18 19 NYFTV (Escherichia coli, UniProt P23836); Sort-seq, refers to: YFP reporter; E. coli; PhoQ-PhoP variant library, with: 10 µM Mg2+; relative to: high Mg2+ state, higher = stronger signaling): 0.842

Repeated from above (set 1):
ACTGCTAA: -0.069
ATGGGGAA: -0.0962
CGAAAAGA: -0.187
CCGACGCA: 0.44
GCCGACGA: 0.203
CACACAGA: -0.189
